{"data": "Experimental data pooled from the literature", "note": "A part holds a random share of what one study measured. Substitutions count along the parent as printed."}
{"data": "Sample 1", "target": "RNA binding protein fox-1 homolog 2, RRM domain, GST-SBP tag (RBFOX2, Homo sapiens, UniProt O43251-10, residues 100-194)", "method": "RNA Bind-n-Seq", "form": "RNA", "sample": "in vitro", "concentration": "365 nM", "notes": "natural RNA segment, single round, ends assumed", "baseline": "no-protein control", "reading": "higher = stronger binding", "constant ends, left off below": "GGGAGUUCUACAGUCCGACGAUC … UGGAAUUCUCGGGUGCCAA", "Construct (chain)": "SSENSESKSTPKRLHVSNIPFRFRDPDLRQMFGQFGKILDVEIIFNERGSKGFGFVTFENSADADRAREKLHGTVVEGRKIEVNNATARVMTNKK"}
{"Sequence": "GAUUGUGUUGGGGGAGGGACUGACUGUACUCAUGGCUAACUUAAAGUAUUAAAAUAAGGCUGUCCCCUACAACCUUCUUAGUCACACAGGAUCCCUGUAGCCAAAACAGU", "RBNS enrichment (R)": 0.786}
{"Sequence": "CAGCAGGUUCUAGUGCCUUGACCUGGGGUAGGACCGAGUGAAGGAGGAAGAGGGUAAAAGGGCACAGACUUCCCCAGCUCUGCCCUAAAUAAAAUAACAAUGCUGAUUCA", "RBNS enrichment (R)": 0.939}
{"Sequence": "CCUUAGGAUGACCUAAGGGGAGGACCCCGUACCCCAUCACCGGAGAGCCUGCAUUUCCCUGCUAUUGUAGGGAUUCCUACUGGGAGACCUCGAGGGGUAGCUGUCUCCUG", "RBNS enrichment (R)": 0.769}
{"Sequence": "CACACCUACCCCUACCGUCCAGCCUGGCCUCUUCCCUGAAUCAGCUUCAAGAUGGCACCAGCUCUUUGGGCCUAGGAUACUGCCGGGCCCCCCAAGGGGGUCCCCAGCAA", "RBNS enrichment (R)": 0.371}
{"Sequence": "AUGGACUCAGAGCUGUGUGCUUUGCUCCUGCAUCUUGUUGAGGUGCUGUUCCAGCUUUGCAUUUCUGUCAAGUAGAGGCGAAUAUAUAAACAGUGUGGUUGAAUACAUUU", "RBNS enrichment (R)": 0.772}
{"Sequence": "CCAGACUUUAUAUUACAUCUCUGAAGUUCUUGAUGUGGGGAAGAUUGACUUUUAUUCCAUUUUUAUAUGAAGGUGUUAGAUAUAGCCAUCAAUUUAUUUUUCUACAUUCC", "RBNS enrichment (R)": 0.449}
{"Sequence": "CUCCUCCCCAGAGCACCCCCUGCCAUCAGGGGGGUUGAAAUCCCUCUCCCCCAGGAGCCCUGCUGCUUUGCUUGGUGGUAGGGCAGGAGAGCAAACAAACAGUCAUGGUC", "RBNS enrichment (R)": 0.358}
{"Sequence": "AUGAAUGGCAAGCUGACAGCUUCUCCUGCUGUUUCCUUCCUCUCUUGGACUGAGUGGGUACGGCCAGCCACUCAGCCCAUUGGCAGCUGACAACGCAGACACGCUCUACG", "RBNS enrichment (R)": 0.25}
{"data": "Sample 2", "target": "Histone acetyltransferase KAT6A, winged helix 1, GST fusion (KAT6A, Homo sapiens, UniProt Q92794, residues 1-85)", "method": "protein binding microarray", "form": "double-stranded DNA, one strand shown", "sample": "in vitro", "concentration": "not given", "notes": "8-mer, flanks averaged, mean of 2 arrays, mostly near background", "baseline": "not given", "reading": "higher = stronger binding", "Construct (chain)": "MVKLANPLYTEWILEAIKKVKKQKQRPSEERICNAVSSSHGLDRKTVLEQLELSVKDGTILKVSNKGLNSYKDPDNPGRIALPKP"}
{"Sequence": "AACTCTTC", "E-score": -0.172}
{"Sequence": "CCCGAGTA", "E-score": 0.21}
{"Sequence": "AAGCCGAG", "E-score": 0.091}
{"Sequence": "GCCCTAAA", "E-score": 0.137}
{"Sequence": "CGTGTAAC", "E-score": 0.106}
{"Sequence": "CCACACTA", "E-score": -0.0558}
{"Sequence": "ACGATCAT", "E-score": -0.148}
{"Sequence": "GCTCATCC", "E-score": -0.039}
{"Sequence": "ATTGAACA", "E-score": -0.106}
{"Sequence": "AGAGCCCA", "E-score": -0.25}
{"Sequence": "CGCAAGTA", "E-score": 0.157}
{"Sequence": "CGTTAGTC", "E-score": -0.0214}
{"Sequence": "CATGCTAA", "E-score": -0.17}
{"Sequence": "GCGATGAA", "E-score": 0.125}
{"Sequence": "ATCTGTAA", "E-score": -0.0433}
{"Sequence": "AACGCGCG", "E-score": 0.419}
{"Sequence": "CGTAACTC", "E-score": 0.0829}
{"Sequence": "AGGGTACG", "E-score": -0.0391}
{"Sequence": "GAATAGCA", "E-score": -0.291}
{"Sequence": "CTACCACC", "E-score": -0.0612}
{"Sequence": "ATACCACC", "E-score": -0.074}
{"Sequence": "ATATTCCA", "E-score": -0.151}
{"Sequence": "ACCCGTGA", "E-score": 0.307}
{"Sequence": "GAACATTC", "E-score": -0.147}
{"Sequence": "ACGCGTTC", "E-score": 0.345}
{"data": "Sample 3", "target": "ABI1, truncated, D143A, DHFR fusion (Arabidopsis thaliana, UniProt P49597)", "method": "DHFR PCA, dose-response", "sample": "yeast", "notes": "Hill fit, mean, not affinity", "together with": "(+)-ABA, dose series", "reading": "lower = more sensitive", "starting sequence": "PYL1, truncated, DHFR fusion (Arabidopsis thaliana, UniProt Q8VZS8); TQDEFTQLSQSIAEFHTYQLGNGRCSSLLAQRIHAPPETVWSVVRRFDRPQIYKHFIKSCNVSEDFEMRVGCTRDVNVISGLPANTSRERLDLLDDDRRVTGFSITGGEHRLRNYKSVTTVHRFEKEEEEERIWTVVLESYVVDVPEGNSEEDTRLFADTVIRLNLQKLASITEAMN"}
{"Substitution": "S27H", "ABA EC50 [µM]": 2.14}
{"Substitution": "E127R", "ABA EC50 [µM]": 3.16}
{"Substitution": "R69H", "ABA EC50 [µM]": 3.09}
{"Substitution": "F15R", "ABA EC50 [µM]": 66.9}
{"Substitution": "E129C", "ABA EC50 [µM]": 2.78}
{"Substitution": "D3H", "ABA EC50 [µM]": 4.98}
{"Substitution": "L29N", "ABA EC50 [µM]": 6.64}
{"Substitution": "I79Q", "ABA EC50 [µM]": 5.02}
{"Substitution": "R111L", "ABA EC50 [µM]": 18.3}
{"Substitution": "V136Q", "ABA EC50 [µM]": 158}
{"Substitution": "S104V", "ABA EC50 [µM]": 100}
{"Substitution": "L164Y", "ABA EC50 [µM]": 1.64}
{"Substitution": "R132K", "ABA EC50 [µM]": 1.25}
{"Substitution": "S117A", "ABA EC50 [µM]": 13.4}
{"Substitution": "F124Y", "ABA EC50 [µM]": 1.89}
{"Substitution": "V161F", "ABA EC50 [µM]": 7.91}
{"Substitution": "T160L", "ABA EC50 [µM]": 2.9}
{"Substitution": "N149R", "ABA EC50 [µM]": 466}
{"Substitution": "D159T", "ABA EC50 [µM]": 44.8}
{"Substitution": "D3K", "ABA EC50 [µM]": 6.44}
{"Substitution": "S104K", "ABA EC50 [µM]": 153}
{"Substitution": "P37G", "ABA EC50 [µM]": 106}
{"Substitution": "E109T", "ABA EC50 [µM]": 4.15}
{"data": "Sample 4", "target": "Prothrombin, mature alpha-thrombin (F2, Homo sapiens, UniProt P00734)", "method": "aptamer microarray, sandwich", "form": "DNA with 2'F-ANA", "sample": "in vitro", "concentration": "200 nM", "notes": "whole 15-mer aptamer, many near background", "together with": "Cy3 exosite-II aptamer, 400 nM", "reading": "higher = stronger binding", "sequence": "GGTTGGTGTGGTTGG"}
{"Modification": "2'F-ANA at 2 4 6 7 8 10 11 13", "mean fluorescence intensity [a.u.]": 84.5}
{"Modification": "2'F-ANA at 1 2 3 6 7 12 13 14 15", "mean fluorescence intensity [a.u.]": 78.4}
{"Modification": "2'F-ANA at 1 4 5 7 13 14 15", "mean fluorescence intensity [a.u.]": 74.2}
{"Modification": "2'F-ANA at 3 9 12 13", "mean fluorescence intensity [a.u.]": 1190}
{"Modification": "2'F-ANA at 2 4 6 8 9 10 11 12 14", "mean fluorescence intensity [a.u.]": 75.3}
{"Modification": "2'F-ANA at 1 3 4 5 6 9 11 12 13 15", "mean fluorescence intensity [a.u.]": 64.6}
{"Modification": "2'F-ANA at 3 8 9 13 15", "mean fluorescence intensity [a.u.]": 901}
{"Modification": "2'F-ANA at 1 3 4 5 6 13 15", "mean fluorescence intensity [a.u.]": 49}
{"Modification": "2'F-ANA at 1 4 5 6 10 12 14", "mean fluorescence intensity [a.u.]": 46.8}
{"Modification": "2'F-ANA at 1 3 4 5 6 8 12 14", "mean fluorescence intensity [a.u.]": 49.4}
{"Modification": "2'F-ANA at 1 2 5 9 10 13 14", "mean fluorescence intensity [a.u.]": 52.8}
{"Modification": "2'F-ANA at 6 7 9 10 12 14 15", "mean fluorescence intensity [a.u.]": 106}
{"Modification": "2'F-ANA at 2 4 7 8", "mean fluorescence intensity [a.u.]": 460}
{"Modification": "2'F-ANA at 1 9 11 13 14 15", "mean fluorescence intensity [a.u.]": 107}
{"Modification": "2'F-ANA at 3 4 5 6 8 11 13", "mean fluorescence intensity [a.u.]": 69.2}
{"Modification": "2'F-ANA at 2 3 8 9 12 14 15", "mean fluorescence intensity [a.u.]": 500}
{"Modification": "2'F-ANA at 1 3 4 5 6 7 8 9 11 15", "mean fluorescence intensity [a.u.]": 70.2}
{"Modification": "2'F-ANA at 2 6 8 9 11 12 14 15", "mean fluorescence intensity [a.u.]": 143}
{"data": "Sample 5", "target": "TAR DNA-binding protein 43, full length, His tag (TARDBP, Homo sapiens, UniProt Q13148, residues 1-414)", "method": "RNA Bind-n-Seq", "form": "RNA", "sample": "in vitro", "concentration": "20 nM", "notes": "6-mer, flanks averaged, single round", "together with": "150 mM KCl", "baseline": "input library", "reading": "higher = stronger binding"}
{"Sequence": "UAGGGC", "6-mer enrichment (R)": 1.91}
{"Sequence": "CGGAGG", "6-mer enrichment (R)": 3.67}
{"Sequence": "ACUUGA", "6-mer enrichment (R)": 0.641}
{"Sequence": "UAAGGU", "6-mer enrichment (R)": 0.783}
{"Sequence": "CAAGGA", "6-mer enrichment (R)": 0.897}
{"Sequence": "GUCAUG", "6-mer enrichment (R)": 0.885}
{"Sequence": "ACGCGG", "6-mer enrichment (R)": 1.8}
{"Sequence": "CACUAA", "6-mer enrichment (R)": 0.632}
{"Sequence": "GAUAGC", "6-mer enrichment (R)": 0.851}
{"Sequence": "CUUUAG", "6-mer enrichment (R)": 0.615}
{"Sequence": "GGUAUA", "6-mer enrichment (R)": 0.912}
{"Sequence": "GCUACA", "6-mer enrichment (R)": 0.69}
{"Sequence": "UUCUUC", "6-mer enrichment (R)": 0.545}
{"Sequence": "CGGUAC", "6-mer enrichment (R)": 0.816}
{"note": "Excerpt of the above (sample 2):"}
{"Sequence": "ACGATCAT", "E-score": -0.148}
{"Sequence": "GCTCATCC", "E-score": -0.039}
{"Sequence": "ATTGAACA", "E-score": -0.106}
{"Sequence": "AGAGCCCA", "E-score": -0.25}
{"Sequence": "CGCAAGTA", "E-score": 0.157}
{"Sequence": "CGTTAGTC", "E-score": -0.0214}
{"Sequence": "CATGCTAA", "E-score": -0.17}
{"Sequence": "GCGATGAA", "E-score": 0.125}
{"Sequence": "ATCTGTAA", "E-score": -0.0433}
{"Sequence": "AACGCGCG", "E-score": 0.419}
{"Sequence": "CGTAACTC", "E-score": 0.0829}
